Results from different studies.
Every numbered part comes from another study and shows a few of its results, in no order.

Block 1 — observed: binding; method: radioligand binding
Target: D(1A) dopamine receptor (DRD1, Homo sapiens, UniProt P21728)
Chain of UniProt P21728 (whole entry, looked up): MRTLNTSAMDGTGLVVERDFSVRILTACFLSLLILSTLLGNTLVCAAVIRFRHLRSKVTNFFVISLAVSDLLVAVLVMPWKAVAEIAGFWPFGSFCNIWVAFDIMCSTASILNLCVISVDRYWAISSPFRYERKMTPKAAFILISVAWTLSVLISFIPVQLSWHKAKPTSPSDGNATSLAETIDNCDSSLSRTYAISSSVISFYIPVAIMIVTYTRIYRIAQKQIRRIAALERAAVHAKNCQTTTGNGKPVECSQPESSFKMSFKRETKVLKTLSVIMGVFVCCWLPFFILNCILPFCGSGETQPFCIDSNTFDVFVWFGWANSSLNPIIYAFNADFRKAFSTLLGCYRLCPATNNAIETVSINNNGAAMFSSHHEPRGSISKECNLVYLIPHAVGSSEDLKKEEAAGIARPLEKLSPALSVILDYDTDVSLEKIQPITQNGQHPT
The Ki of CNC(=O)c1ccc(Nc2ncc(C(F)(F)F)c(NCc3nccnc3N(C)S(C)(=O)=O)n2)cc1 is reported as > 10 µM.
With O=C(NCc1ncc(C(F)(F)F)cc1Cl)c1ccc2c(c1)C1(CCS(=O)(=O)CC1)[C@@H](C1CC1)N2S(=O)(=O)c1ccc(F)cc1 the Ki was > 10 µM.
For O=C(c1ccc(F)cc1)N1CC(COc2ccc(Br)cc2)(C(=O)O)C1, the Ki was > 10 µM.

Block 2 — host: human; sample: microsomes or S9; concentration: 2 µM; time: 0.5 h
The remaining compound of C[C@@H]1[C@@H](CO)[C@](O)(C(F)(F)F)c2cc([N+](=O)[O-])cn21 is reported as > 99.9%.
The remaining compound of OC(Cn1cnc2ccccc21)Cn1c2ccccc2c2ccccc21 (stereo not drawn) is reported as 3.75%.
With COc1nn(C)c(=O)n1-c1ccccc1NC(=O)c1ccc(Cl)cc1Cl the remaining compound was 86.8%.
COc1ccc2c(CSc3nc4ccccc4o3)cc(=O)oc2c1 has a remaining compound of 0.17%.
For Cc1c(NC(=O)c2ccc(Cl)cc2)c(=O)n(-c2ccccc2)n1C, the remaining compound was 83.5%.
The remaining compound of O=C(C1CCOCC1)N1CCC(Oc2nccnc2N2CCOCC2)C1 (stereo not drawn) is reported as 7.2%.

Block 3 — organism: Sarcocystis neurona; observed: parasite growth; concentration: 10 µM; setting: secondary screen
With CC(C)C(=O)Nc1ccc([N+](=O)[O-])c(C(F)(F)F)c1 the inhibition was -38.6%.
With COc1cc(C)c(Cc2cnc(N)nc2N)cc1OC the inhibition was 45.3%.
With CC(C)(C)NCC(O)COc1cccc2c1CC(O)C(O)C2 (stereo not drawn) the inhibition was -24.3%.
With CC1=C(/C=C/C(C)=C/C=C/C(C)=C/C(=O)O)C(C)(C)CCC1 the inhibition was -45.2%.
COC(=O)C[C@](O)(CCCC(C)(C)O)C(=O)O[C@@H]1C(OC)=C[C@]23CCCN2CCc2cc4c(cc2[C@H]13)OCO4 gave an inhibition of 98.9%.
The inhibition of CC(C)/N=c1\cc2n(-c3ccc(Cl)cc3)c3ccccc3nc-2cc1Nc1ccc(Cl)cc1 is reported as 94.9%.

Block 4 — cell line: A-375; concentration: 100 µM; time: 36 h
For COc1cc(C(=O)NS(=O)(=O)c2ccccc2C)ccc1Cc1cn(C)c2ccc(NC(=O)OC3CCCC3)cc12, the viability was 46.3%.
For CC1=C(C(=O)OC(C)C)C(c2cccc([N+](=O)[O-])c2)C(C(=O)OC2CN(C(c3ccccc3)c3ccccc3)C2)=C(N)N1 (stereo not drawn), the viability was 2.96%.
Cc1cccc(CN2CCN(C(c3ccccc3)c3ccc(Cl)cc3)CC2)c1 (stereo not drawn) has a viability of 58.4%.
CCC[C@H](N[C@@H](C)C(=O)N1[C@H](C(=O)O)C[C@@H]2CCCC[C@@H]21)C(=O)OCC gave a viability of 108%.
The viability of N[C@@H](Cc1c[nH]c2ccc(O)cc12)C(=O)O is reported as 119%.
Cc1nc2c([nH]1)-c1ccccc1N(C(=O)c1ccc(NC(=O)c3ccccc3-c3ccccc3)cc1)CC2 has a viability of 95%.

For quick reference, copied from above (block 3):
With CC1=C(/C=C/C(C)=C/C=C/C(C)=C/C(=O)O)C(C)(C)CCC1 the inhibition was -45.2%.
With CC(C)C(=O)Nc1ccc([N+](=O)[O-])c(C(F)(F)F)c1 the inhibition was -38.6%.
